Results of several laboratories.
Each numbered part is a random draw from the data of one study; scales do not carry over between parts. Changes are numbered by the printed parent chain.

Series 1
Target: Fragile X messenger ribonucleoprotein 1, C-terminal low-complexity region (Fmr1, Mus musculus, UniProt P35922)
Method: RNA Bind-n-Seq
Molecule type: RNA
Matrix: in vitro
Tested at: 200 nM
Setting: whole 134-nt RNA, ends assumed
Added: 150 mM LiCl
Baseline: input library
Reading: higher = stronger binding
Endpoint: log2 enrichment
Library: 7-deaza-guanosine replaces G
Constant ends, left off below: GGGAGUUCUACAGUCCGACGAUC … UGGAAUUCUCGGGUGUCAAGG
Oligonucleotide = UAACUUUAGAGGAGGAUCUGAUGGAUAUGGCAGUGGACGUGGAUUUGGGGAUGGCUAUAAUGGGUAUGGAGGAGGACCUAGAGGUGGCAA; value = -0.164
Oligonucleotide = ACCAUGCAGGUGGACAUCUUUGGGAAGUGGGGCAAGGGGGGGAUAGGGAGGGGGGUAACACUUUGGGAACAGGUGGUCCCAGGUCGUUUC; value = 1.39
Oligonucleotide = AAGUCCUGUGCUACACAUCGUAUGUACCGAAUCGGGGUUUUGGUUUUGGGUUUUGGAAAGUAUUAUGUUACGCCGUUCGGAUCUGCACUU; value = -1.94
Oligonucleotide = ACCAUGCAGUUGGGCAUCUUUGGGAAGUGGGGCAAGGGGGGGAUAGGGAGGGGGGUAACACUUUGGGAACAGGUGGUCCCAGGUCGUUUC; value = 1.26
Oligonucleotide = UGCACACCGCCUUGCACAUAGCAGAGGCUCCGGGCUCACUCCUUCCUGGUGGGAAAGGAAGAUGCCUGUCCUCUCCGUGGAAGACCCUGG; value = -0.866
Oligonucleotide = GGCACCCUUUGAAGGGGAGGAUGAAGAUGAACUCUUCCAAUCCAUCAUGGAACACAACGUAGCCUAUCCCAAGUCUAUGUCCAAGGAAGC; value = 0.949

Series 2
Target: Histone acetyltransferase KAT6A, both winged helices, GST fusion (KAT6A, Homo sapiens, UniProt Q92794, residues 1-181)
Method: protein binding microarray
Molecule type: double-stranded DNA, one strand shown
Matrix: in vitro
Tested at: not given
Setting: 8-mer, flanks averaged, mean of 2 arrays, mostly near background
Baseline: not given
Reading: higher = stronger binding
Endpoint: E-score
Residues (chain): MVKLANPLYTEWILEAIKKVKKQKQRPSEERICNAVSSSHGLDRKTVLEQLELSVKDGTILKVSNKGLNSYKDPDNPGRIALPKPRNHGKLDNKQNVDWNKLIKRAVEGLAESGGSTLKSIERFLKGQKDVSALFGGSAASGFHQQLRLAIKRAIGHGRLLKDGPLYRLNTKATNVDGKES
Oligonucleotide = CTGTCAAA; value = -0.00618
Oligonucleotide = AAGCCACG; value = 0.0425
Oligonucleotide = AGACTTCC; value = -0.1
Oligonucleotide = GATATTGC; value = -0.0381
Oligonucleotide = TCGCGAGA; value = 0.21
Oligonucleotide = CAGATTCG; value = -0.0728
Oligonucleotide = AGCCGGGA; value = 0.148
Oligonucleotide = ATTCCCCG; value = 0.2
Oligonucleotide = GGTAAAAC; value = 0.0209
Oligonucleotide = AGAACTTG; value = -0.219
Oligonucleotide = AGAAATAG; value = -0.22
Oligonucleotide = CTGTTCTA; value = -0.0843
Oligonucleotide = GCTCCCCC; value = -0.143
Oligonucleotide = AGCCACTA; value = -0.227
Oligonucleotide = CCGTTTGA; value = 0.213
Oligonucleotide = ATAAAGTA; value = -0.176
Oligonucleotide = TCTAGTAA; value = 0.103
Oligonucleotide = ATTTTCAG; value = -0.123

Series 3
Target: CCNA1, cyclin fold, Cln2 fusion (human)
Method: yeast growth competition, sequencing
Matrix: yeast
Setting: strong parent motif
Baseline: not given
Reading: higher = stronger binding
Endpoint: normalised enrichment score
Parent: RBL2 docking peptide (human); STTRRRLFVENDS; partner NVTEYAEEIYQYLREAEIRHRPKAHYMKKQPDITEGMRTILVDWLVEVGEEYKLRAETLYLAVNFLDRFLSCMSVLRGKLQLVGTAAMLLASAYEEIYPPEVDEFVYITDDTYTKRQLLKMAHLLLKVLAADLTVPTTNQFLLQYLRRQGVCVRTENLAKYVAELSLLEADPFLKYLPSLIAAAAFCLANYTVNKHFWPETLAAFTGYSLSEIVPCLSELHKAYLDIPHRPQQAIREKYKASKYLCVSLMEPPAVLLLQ
Change = STTRRRRFVENDS [L7R]; value = 0.48
Change = SITRRRLFVENDS [T2I]; value = 0.441
Change = STTRRRLFVENTS [D12T]; value = 0.206
Change = STTRRRLFVENMS [D12M]; value = 0.485
Change = STTRRRLVVENDS [F8V]; value = 0.529
Change = STTRRMLFVENDS [R6M]; value = 0.422
Change = STTRRRHFVENDS [L7H]; value = 0.152
Change = STTRRRLAVENDS [F8A]; value = 0.184
Change = STTRRRLFVEMDS [N11M]; value = 0.795
Change = STTRRRLFVECDS [N11C]; value = 0.676
Change = STTRRRLFVENNS [D12N]; value = 0.0603
Change = SRTRRRLFVENDS [T2R]; value = 0.555
Change = STTRCRLFVENDS [R5C]; value = 0.352
Change = STTRRRLFVENLS [D12L]; value = 0.309
Change = FTTRRRLFVENDS [S1F]; value = 0.688
Change = STTRRRLFVEADS [N11A]; value = 0.347

Series 4
Target: Runt-related transcription factor 3, Runt domain (RUNX3, Homo sapiens, UniProt Q13761, residues 53-186)
UniProt Q13761, sequence (53-186, looked up): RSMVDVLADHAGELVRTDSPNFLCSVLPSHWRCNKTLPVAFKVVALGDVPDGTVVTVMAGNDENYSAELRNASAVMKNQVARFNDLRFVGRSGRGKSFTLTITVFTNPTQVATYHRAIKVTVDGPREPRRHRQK
Method: protein-binding microarray
Molecule type: hairpin DNA
Matrix: in vitro
Tested at: not given
Setting: whole hairpin DNA, median over replicate spots
Baseline: not given
Reading: higher = stronger binding
Endpoint: median fluorescence
Oligonucleotide = GAGGCCTGTTGTGGATGGCCTCCTGGCCATCCACAACAGGCCTCACACTC; value = 4190 a.u.
Oligonucleotide = GAGGCCCGTTGCGGTTGGCCTCCTGGCCAACCGCAACGGGCCTCACACTC; value = 9030 a.u.
Oligonucleotide = GAGGCCTGTTGCGGTTCGCCTCCTGGCGAACCGCAACAGGCCTCACACTC (5mC at 17); value = 6370 a.u.
Oligonucleotide = GAGGCCTGTTCCGGTTGGCCTCCTGGCCAACCGGAACAGGCCTCACACTC; value = 4770 a.u.
Oligonucleotide = GAGGCCTGTCGCGCGTGGCCTCCTGGCCACGCGCGACAGGCCTCACACTC (5mC at 14 30); value = 5520 a.u.
Oligonucleotide = CTCAGTTCTGTGGGCTGGACTCCTGTCCAGCCCACAGAACTGAGACACTC (5mC at 32); value = 4280 a.u.
Oligonucleotide = GAGGCCTGTTGCGGTTGGCCTCCTGGCCAACCGCAACAGGCCTCACACTC (5mC at 34); value = 8810 a.u.
Oligonucleotide = GAGGCCTGTTGCGGTCGGCCTCCTGGCCGACCGCAACAGGCCTCACACTC (5mC at 28); value = 7900 a.u.
Oligonucleotide = GAGGCCCGTCGCGGTTGGCCTCCTGGCCAACCGCGACGGGCCTCACACTC (5mC at 7 37); value = 5940 a.u.
Oligonucleotide = GAGGCCTGCTGTGGTTGGCCTCCTGGCCAACCACAGCAGGCCTCACACTC; value = 5840 a.u.
Oligonucleotide = GAGGCCCAACCGCAACAGCCTCCTGGCTGTTGCGGTTGGGCCTCACACTC (5mC at 10); value = 5380 a.u.
Oligonucleotide = GAGGCCTGTCGCGGTTGGCCTCCTGGCCAACCGCGACAGGCCTCACACTC (5mC at 10 32 34); value = 5090 a.u.
Oligonucleotide = GAGGCCCGTTGTGGTTGGCCTCCTGGCCAACCACAACGGGCCTCACACTC (5mC at 7 37); value = 5930 a.u.
Oligonucleotide = GAGGCCTGTTCGGGTTGGCCTCCTGGCCAACCCGAACAGGCCTCACACTC; value = 5100 a.u.
Oligonucleotide = GAGGCCCAATCGCAACAGCCTCCTGGCTGTTGCGATTGGGCCTCACACTC; value = 5010 a.u.
Oligonucleotide = GAGGCCCAACCGCTACAGCCTCCTGGCTGTAGCGGTTGGGCCTCACACTC; value = 5540 a.u.

Series 5
Target: ABI1, truncated, D143A, DHFR fusion (Arabidopsis thaliana)
Method: DHFR PCA, deep sequencing
Matrix: yeast
Setting: methotrexate growth selection, single substitutions
Added: (+)-ABA 710 µM
Baseline: wild-type fitted maximum
Reading: higher = stronger binding
Endpoint: relative binding score
Parent: PYL1, truncated, DHFR fusion (Arabidopsis thaliana); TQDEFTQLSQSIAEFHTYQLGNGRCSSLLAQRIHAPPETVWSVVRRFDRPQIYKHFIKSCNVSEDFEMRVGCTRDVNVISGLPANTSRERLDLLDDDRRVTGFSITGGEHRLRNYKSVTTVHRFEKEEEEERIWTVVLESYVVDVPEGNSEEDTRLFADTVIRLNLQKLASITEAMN; partner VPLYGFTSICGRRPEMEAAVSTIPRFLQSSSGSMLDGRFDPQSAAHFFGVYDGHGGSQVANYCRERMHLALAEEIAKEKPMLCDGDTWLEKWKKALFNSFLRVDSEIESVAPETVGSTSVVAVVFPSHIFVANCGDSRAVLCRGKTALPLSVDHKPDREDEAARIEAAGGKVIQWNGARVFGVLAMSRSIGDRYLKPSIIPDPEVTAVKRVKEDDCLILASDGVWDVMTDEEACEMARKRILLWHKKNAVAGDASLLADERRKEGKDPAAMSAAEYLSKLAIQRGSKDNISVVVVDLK
Change = K126E; value = 110%
Change = V136P; value = -13.7%
Change = T106C; value = 105%
Change = T6H; value = 117%
Change = K54D; value = 6.46%
Change = S9D; value = 107%
Change = Q10S; value = 108%
Change = R113P; value = 58.3%
Change = D92S; value = 85.6%
Change = R32C; value = 93.4%
Change = T73I; value = 95.2%
Change = V143P; value = -10.3%

Repeated from above (series 2):
Oligonucleotide = AGAACTTG; value = -0.219
Oligonucleotide = GGTAAAAC; value = 0.0209
Oligonucleotide = AGCCGGGA; value = 0.148
Oligonucleotide = CTGTTCTA; value = -0.0843
Oligonucleotide = CCGTTTGA; value = 0.213
Oligonucleotide = AGAAATAG; value = -0.22
Oligonucleotide = AGACTTCC; value = -0.1
Oligonucleotide = AGCCACTA; value = -0.227
Oligonucleotide = GCTCCCCC; value = -0.143
Oligonucleotide = ATAAAGTA; value = -0.176
